# Published values collected from several papers.
# “And” joins repeats or separate records; there may be more than shown. ± gives the spread as reported.
Compound,organism,test,test system,setting,how to read,measurement,value
CCOC(=O)C1(Cc2ccc(C)cc2)Oc2cc(F)ccc2N(Cc2ccc(C)cc2)C1=O (stereo not shown),Eclipta prostrata,"fresh weight, greenhouse postemergence",,"postemergence, 150 g ai/ha, 21 days",,inhibition,58.9 ± 3.35%
[O-][N+]1=C(c2ccsc2)C2=NCCCN2c2ccccc21,Parabacteroides distasonis and Bacteroides spp.,bacterial growth,,,,MIC90,0.5 µg/mL
COc1cc(C(SC(C)C)SC(C)C)ccc1OCCNS(=O)(=O)c1ccc(C)cc1,Tobacco mosaic virus,curative activity,plant in vivo,,,EC50,356.8 ± 3.5 µg/mL
C[C@H](NC(=O)Cc1cc(F)cc(F)c1)C(=O)N[C@@H]1C(=O)N(C)c2ccccc2-c2ccccc21,dengue virus type 2,"viral replication, Renilla luciferase reporter virus",MEF,48 h,,EC50,21 nM
CN(C(=O)c1ccn2ncc(-c3ccc(C(N)=O)cc3)c2c1)c1ccc(C#N)cn1,Cryptosporidium parvum,,"UGA1 Nluc, IFN-gamma knockout C57BL/6 mice, faeces","oral, 10 mg/kg daily, 312 h post infection, treatment days 11-17",higher means more parasites,faecal Nluc luminescence,428 a.u. and 54 a.u. and 1290 a.u. and 13000 a.u. and 175 a.u.
COc1cc(C(SC(C)C)SC(C)C)ccc1OCCNS(=O)(=O)c1ccc(Cl)cc1,tobacco mosaic virus,curative activity,in vivo plant,,,EC50,271 ± 3.7 µg/mL
CCCCCCCCCCCCCC(=O)N[C@H]1C(=O)N[C@@H](CN)C(=O)N[C@@H](CO)C(=O)N[C@@H](Cc2ccc(O)cc2)C(=O)O[C@H]1C,Staphylococcus aureus,,SH1000,"added: cardiolipin, molar ratio 1",,MIC,> 32 µg/mL
CCCSC(SCCC)c1ccc(OCCNS(=O)(=O)c2cccc(Br)c2)c(OC)c1,Tobacco mosaic virus,curative activity,plant in vivo,,,EC50,322.1 ± 2.6 µg/mL
CC[C@H](C)[C@H](NC(=O)[C@H](C)NC(=O)CNC(=O)[C@H](C)NC(=O)[C@H](CCCCN)NC(=O)[C@H](CO)NC(=O)[C@H](C)NC(=O)[C@H](CCSC)NC(=O)CN)C(=O)N[C@@H](C)C(=O)NCC(=O)N[C@@H](CCCCN)C(=O)N[C@H](C(=O)N[C@@H](C)C(=O)N[C@@H](CCCCN)C(=O)N[C@H](C(=O)N[C@@H](C)C(=O)N[C@@H](CC(C)C)C(=O)N[C@@H](CCCCN)C(=O)N[C@@H](C)C(=O)N[C@@H](CC(C)C)C(N)=O)C(C)C)[C@@H](C)CC,Escherichia coli,,3538 wild type,added: nalidixic acid,,combination index,0.75
CCCN1C(=O)C(CCC)(C(=O)OCC)Oc2cc(F)ccc21 (stereo not shown),Echinochloa crus-galli,"fresh weight, greenhouse postemergence",,"postemergence, 150 g ai/ha, 21 days",,inhibition,56.6 ± 3.7%
C[N+]1=C2C(c3ccccc3)=[N+]([O-])c3ccccc3N2CCC1,Prevotella spp.,bacterial growth,,,,MIC90,8 µg/mL
CCOC(=O)C1(Cc2cccc(C(C)C)c2)Oc2cc(F)ccc2N(Cc2cccc(C(C)C)c2)C1=O (stereo not shown),Eclipta prostrata,"fresh weight, greenhouse postemergence",,"postemergence, 150 g ai/ha, 21 days",,inhibition,61.2 ± 1.98%
Cc1ccc(S(=O)(=O)NCCOc2ccc(C(SC(C)C)SC(C)C)cc2Cl)cc1,tobacco mosaic virus,curative activity,in vivo plant,,,EC50,> 2500 µg/mL
CC[C@H](C)[C@H](NC(=O)[C@H](CCCNC(=N)N)NC(=O)[C@H](CO)NC(=O)[C@H](Cc1ccc(O)cc1)NC(=O)[C@@H](NC(=O)[C@@H](NC(=O)[C@H](C)NC(=O)CNC(=O)[C@H](CCCCN)NC(=O)[C@H](CCCCN)NC(=O)CCNC(=O)CCCCCNC(=O)[C@H](CCCNC(=N)N)NC(=O)CCCCCNC(=O)[C@H](CCCNC(=N)N)NC(=O)[C@H](CCCNC(=N)N)NC(=O)CCCCCNC(=O)[C@H](CCCNC(=N)N)NC(=O)[C@H](CCCNC(=N)N)NC(=O)CCCCCNC(=O)[C@H](CCCNC(=N)N)NC(=O)[C@H](CCCNC(=N)N)NC(=O)CCCCCNC(=O)[C@@H](N)CCCNC(=N)N)C(C)C)[C@@H](C)O)C(=O)N[C@@H](CO)C(=O)NCC(=O)N[C@@H](CCC(N)=O)C(=O)N[C@@H](Cc1ccc(O)cc1)C(=O)N[C@@H](CCCCN)C(=O)O,Escherichia coli,,ATCC 25922,"1 h, 37 °C, after 90% human serum",,MIC,48 µM
CCCSC(SCCC)c1ccc(OCCNS(=O)(=O)c2ccc(C)cc2)c(OC)c1,tobacco mosaic virus,curative activity,in vivo plant,,,EC50,> 2500 µg/mL
CN(CCO)CCO.O=C(O)C(Cl)Cl,Eleusine indica,,,"15 mg/mL, 21 days, post-emergence, greenhouse",,herbicidal inhibition,-44%
COc1cc(C(SC(C)C)SC(C)C)ccc1OCCNS(=O)(=O)c1ccc(F)cc1,Tobacco mosaic virus,curative activity,plant in vivo,,,EC50,479.3 ± 1.3 µg/mL
Cc1cc(C(=O)Nc2nc3cccc(C)c3n2[C@H]2CCCCN(C(=O)/C=C/CN(C)C)C2)ccn1,Trypanosoma brucei,"cell growth, Alamar Blue",2T1 overexpressing Tb927.10.4990,,relative to: parental 2T1,EC50 fold shift,1.56 fold and 0.82 fold
CCOC(=O)C1(Cc2cccc(C)c2)Oc2cc(F)ccc2N(Cc2cccc(C)c2)C1=O (stereo not shown),Eclipta prostrata,"fresh weight, greenhouse postemergence",,"postemergence, 150 g ai/ha, 21 days",,inhibition,56.2 ± 3.04%
C[N+]1=C2C(c3ccc([N+](=O)[O-])cc3)=[N+]([O-])c3ccccc3N2CCC1,Parabacteroides distasonis and Bacteroides spp.,bacterial growth,,,,MIC50,0.25 µg/mL
CCSC(SCC)c1ccc(OCCNS(=O)(=O)c2ccc(C)cc2)c(Cl)c1,Tobacco mosaic virus,inactivation activity,plant in vivo,,,EC50,411.9 ± 0.7 µg/mL
CC(C)C[C@H](NC(=O)[C@H](Cc1ccccc1)NC(=O)[C@H](CCC(N)=O)NC(=O)[C@H](Cc1ccc(O)cc1)NC(=O)[C@H](CCCCN)NC(=O)[C@@H]1CCCN1C(=O)[C@H](CCCNC(=N)N)NC(=O)[C@H](CCC(N)=O)NC(=O)[C@H](Cc1c[nH]c2ccccc12)NC(=O)[C@H](CS)NC(=O)[C@H](Cc1c[nH]c2ccccc12)NC(=O)[C@H](Cc1ccccc1)NC(=O)[C@H](CCCNC(=N)N)NC(=O)[C@H](CCCCN)NC(=O)[C@H](CCCCN)NC(=O)[C@H](CCCCN)NC(=O)[C@@H](NC(=O)[C@@H](NC(=O)[C@H](CC(C)C)NC(=O)[C@@H](N)CO)C(C)C)[C@@H](C)O)C(=O)O,Staphylococcus haemolyticus,,,,,MBC,8 µg/mL
[O-][N+]1=C(c2ccc(Cl)cc2)C2=NCCCN2c2ccccc21,Prevotella spp.,bacterial growth,,,,MIC50,0.5 µg/mL
O=C(NNc1ccc(Cl)cc1)c1nnc(CC23CC4CC(CC(C4)C2)C3)o1,Sclerotinia sclerotiorum,microbial growth,,50 µg/mL,,inhibition,100%
Cc1cc(N2CCC(C#N)(C3(C)CC3)C2=O)cc(C(=O)NCc2cc(F)cc(-c3cnn(C)c3)c2)n1 (racemic),Plasmodium falciparum,"parasite growth, [3H]hypoxanthine incorporation","Dd2 ELQ-300-resistant, PfcytB mutant",,,IC50,19 nM
Cc1ccc(N2CC3CC(C2)N3C)cc1C(=O)NC1(c2ccc3c4c(cccc24)C(=O)N3C)CC1,Human coronavirus NL63,"viral replication, inhibitor",,,,IC50,81.6 nM
C#CCN1C(=O)C(CC#C)(C(=O)OCC)Oc2ccccc21 (stereo not shown),Echinochloa crus-galli,,greenhouse,"postemergence, 150 g ai/ha, 21 days",,fresh weight inhibition,> 50%
COc1cc(C(SC(C)C)SC(C)C)ccc1OCCNS(=O)(=O)c1ccc(Br)cc1,Tobacco mosaic virus,curative activity,plant in vivo,,,EC50,183 ± 3.2 µg/mL

# Excerpt of the above:
Compound,organism,test,test system,setting,how to read,measurement,value
COc1cc(C(SC(C)C)SC(C)C)ccc1OCCNS(=O)(=O)c1ccc(C)cc1,Tobacco mosaic virus,curative activity,plant in vivo,,,EC50,356.8 ± 3.5 µg/mL
C[C@H](NC(=O)Cc1cc(F)cc(F)c1)C(=O)N[C@@H]1C(=O)N(C)c2ccccc2-c2ccccc21,dengue virus type 2,"viral replication, Renilla luciferase reporter virus",MEF,48 h,,EC50,21 nM
CN(C(=O)c1ccn2ncc(-c3ccc(C(N)=O)cc3)c2c1)c1ccc(C#N)cn1,Cryptosporidium parvum,,"UGA1 Nluc, IFN-gamma knockout C57BL/6 mice, faeces","oral, 10 mg/kg daily, 312 h post infection, treatment days 11-17",higher means more parasites,faecal Nluc luminescence,428 a.u. and 54 a.u. and 1290 a.u. and 13000 a.u. and 175 a.u.
COc1cc(C(SC(C)C)SC(C)C)ccc1OCCNS(=O)(=O)c1ccc(Cl)cc1,tobacco mosaic virus,curative activity,in vivo plant,,,EC50,271 ± 3.7 µg/mL
